Measurements from different studies.
Each numbered part is a random draw from the data of one study; scales do not carry over between parts. Positions count from the first letter of the parent shown.

Study 1 — method: DHFR PCA, deep sequencing; medium: yeast; added: (+)-ABA 0 µM; baseline: wild-type fitted maximum; direction: higher = stronger binding; measurement: relative binding score
Target: ABI1, truncated, D143A, DHFR fusion (Arabidopsis thaliana)
Notes: methotrexate growth selection, single substitutions
Starting sequence: PYL1, truncated, DHFR fusion (Arabidopsis thaliana); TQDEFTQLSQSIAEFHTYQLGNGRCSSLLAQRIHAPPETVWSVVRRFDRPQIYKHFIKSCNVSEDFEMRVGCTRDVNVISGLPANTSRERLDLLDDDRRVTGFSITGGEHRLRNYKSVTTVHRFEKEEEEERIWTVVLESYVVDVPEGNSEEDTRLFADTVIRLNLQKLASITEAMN; partner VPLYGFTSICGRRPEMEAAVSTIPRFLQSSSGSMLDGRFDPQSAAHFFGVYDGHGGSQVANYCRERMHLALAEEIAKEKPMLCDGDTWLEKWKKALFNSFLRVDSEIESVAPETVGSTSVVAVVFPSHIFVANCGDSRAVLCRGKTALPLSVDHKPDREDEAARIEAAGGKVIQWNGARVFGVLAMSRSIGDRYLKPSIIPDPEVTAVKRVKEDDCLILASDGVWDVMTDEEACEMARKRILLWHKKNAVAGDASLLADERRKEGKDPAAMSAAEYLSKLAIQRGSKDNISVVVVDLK
I79C: 31.8%
P37T: 7.15%
D48Q: -8.54%
H16F: -5.72%
D97G: 8.12%
S63C: 19.6%
H55C: 13.4%
H110F: 15.7%
T73Q: 1.92%
F47Q: -1.57%
Q2R: 19.7%
I79G: 1.7%
V76T: -0.347%
H55P: 58%
Q19P: 45.7%
K54Q: 6.13%

Study 2 — target: CCNA2, cyclin fold, Cln2 fusion (human); method: yeast growth competition, sequencing; medium: yeast; notes: strong parent motif; baseline: not given; direction: higher = stronger binding; measurement: normalised enrichment score
Starting sequence: KIF20B docking peptide (human); KRAKRKLYTSEIS
R5A: 0.0263
K6A: 1.11
E11A: 1.7
S13A: 1.32
K4A: 1.21
S10A: 0.835

Study 3 — method: protein binding microarray; molecule type: double-stranded DNA, one strand shown; medium: in vitro; concentration: not given; baseline: not given; direction: higher = stronger binding; measurement: E-score
Target: Histone acetyltransferase KAT6A, both winged helices, GST fusion (KAT6A, Homo sapiens, UniProt Q92794, residues 1-181)
Notes: 8-mer, flanks averaged, mean of 2 arrays, mostly near background
Target sequence (chain): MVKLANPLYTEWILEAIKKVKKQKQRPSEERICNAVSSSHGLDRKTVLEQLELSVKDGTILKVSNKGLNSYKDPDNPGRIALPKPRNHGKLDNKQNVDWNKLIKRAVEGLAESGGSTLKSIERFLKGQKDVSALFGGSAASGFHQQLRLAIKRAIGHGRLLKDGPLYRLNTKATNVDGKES
GTGAGATA: -0.0278
ACAATAAT: -0.0164
AGCCATAC: -0.122
AGCCCTTG: -0.185
AGCGGCTA: 0.295
GTATCGAA: 0.0724
AGGGGAAA: -0.227
AGCACGAA: -0.117
GATAAAAC: 0.151
ACCACGAG: -0.0463
GTCACCAC: 0.00245
GGGTTCAC: 0.206
GAGTCAAC: -0.116
AGCTCGTA: -0.0577
ATGTAGTA: -0.0599
CTGTTTTA: -0.0464
ATTGCCAA: -0.178

Study 4 — method: RNA Bind-n-Seq; molecule type: RNA; medium: in vitro; concentration: 15 pmol; notes: 4-mer, random 30-nt RNA, single round; added: 3 µM DMDA-PatA, 2 mM AMP-PNP; baseline: input library; direction: higher = stronger binding; measurement: 4-mer enrichment
Target: Eukaryotic initiation factor 4A-I (EIF4A1, Homo sapiens, UniProt P60842, residues 1-406, full length assumed)
UniProt P60842, sequence (whole entry, looked up): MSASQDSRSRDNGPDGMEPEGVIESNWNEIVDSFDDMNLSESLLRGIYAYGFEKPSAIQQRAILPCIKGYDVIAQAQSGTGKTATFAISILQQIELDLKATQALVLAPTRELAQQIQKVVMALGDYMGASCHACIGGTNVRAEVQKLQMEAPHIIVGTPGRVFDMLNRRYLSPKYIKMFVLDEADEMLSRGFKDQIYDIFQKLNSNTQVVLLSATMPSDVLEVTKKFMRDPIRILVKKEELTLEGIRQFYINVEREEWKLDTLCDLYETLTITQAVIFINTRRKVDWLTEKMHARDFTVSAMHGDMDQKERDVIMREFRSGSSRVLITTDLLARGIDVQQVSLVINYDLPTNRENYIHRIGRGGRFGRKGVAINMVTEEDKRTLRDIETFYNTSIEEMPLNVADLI
GCAG: 0.751 fold
GGUU: 1.34 fold
ACUG: 0.721 fold
GUUG: 1.43 fold
GCAU: 0.887 fold
AUUA: 0.933 fold
CGCA: 0.749 fold
GGCU: 1.35 fold
ACGA: 0.675 fold
UUAG: 1.28 fold
CAGU: 0.816 fold
GAAU: 1.25 fold
CAAC: 0.434 fold
CCUU: 0.703 fold
UGAC: 0.61 fold
AUCG: 1.54 fold

Study 5 — method: RNA Bind-n-Seq; molecule type: RNA; medium: in vitro; concentration: 365 nM; baseline: no-protein control; direction: higher = stronger binding; measurement: RBNS enrichment (R)
Target: RNA binding protein fox-1 homolog 2, RRM domain, GST-SBP tag (RBFOX2, Homo sapiens, UniProt O43251-10, residues 100-194)
Notes: natural RNA segment, single round, ends assumed
Constant ends, left off below: GGGAGUUCUACAGUCCGACGAUC … UGGAAUUCUCGGGUGCCAA
Construct (chain): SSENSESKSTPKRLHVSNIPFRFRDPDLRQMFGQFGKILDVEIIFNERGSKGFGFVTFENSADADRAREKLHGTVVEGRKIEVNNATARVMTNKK
ACAUUUAUGUGGGCCACAUACCCAAACUUCCUGCCAUGUAAAGGCGAGUGAUUGUGAAAGCACCUCUGUUGUAGUGGGUAGGUGCCUUUCUCAUGAGCGGGGAGCAUAAC: 0.753
CAUCCGAGUCUUCAGGGUCACGCCCAAGUAACUGAAGGGAGGCUGACUUGGACCCACCAAGGCUUCUGAGCACACACAUCCAUGUGGCCGAGGUUUCUAGUGCUUCAUAG: 0.381
CCCACACUGAGCUGCCCACACUCGAGAGCCAGAUAUUUUUGUAGUUUUUAUGCCUUUGGCUAUUAUGAAAGAGGUUAGUGUGUUCCCUGCAAUAAACUUGUUCCUGAGAA: 0.819
UCAACCUAAGUUGGAAACAGAAAGUGUAAUUAAUAUAACUUAAAUGCAUGUUUGGCAGUUCCAUGUUACAGUCCAUUAGCGAGUGAACUUAGUGCCACAGGUAUUCAUUU: 2.11
AUGUGUUUUUGUUUGUUUGUUUGUUUCAGGAGCAAUCGGUUACAUGGGAACAAGUGCCUUUGUUCGAAAAAUCUAUACUAAUGUGAAAAUUGACUAGAUAUCUGAGACAA: 0.333
ACUUCCUGCACUUAAAAUUUGAAACAGCAAAGGUUUGAGAUGAGAUGCUUGUGGCACACAGUUGGGUGAUGUGGGGAAAGGACACCGGGUCAGGAGUUGCAAGUUUAACU: 0.78
UCUUUCCCAUUGUUCUGUUGCUCCACCUUAUUGUCUCAAGGCCGUAAUCUCAUCAGGUUGGGACAUUAAUCUUUUCAACUCCUUGUAAGAUUUCCCAGUUUGGUUUCUCU: 0.487
AUCCGUCACAUUCAUCUCAUAAUAGAAACACGUUCAUAUUCCAGUGGUCAAUGUAGAUUUCAAGUUGAAAGGCAGUCCCUUUAGUUGGGGGCUGUCCAGAGCUGCAGCAG: 0.337
GAUGCUUUAAAGGAGACAGGAAUAUAAUUAUUGAGUAUAGAAGCAUCAGAAACUAUUAAAAUUAAGGCUAAGUGGCUAUCGGGGUAAAUAGUGCCAGAUUACUAUUGGUG: 1.18
UAUAGUUGCUCUAUCUCAGAUAACUUAUGUUCAAAAGGAGAAUGAAGCCGGGCAUGGUGGCGCAUGCCUUUAAUCCCAGCGCUUGGAGGCAGAGGCAGGUGGAUUUCUGA: 0.454
CAUAAUUGCAGGAAUUAUUUUUUGUUUUUAAAACUGGAUUUGGGGCACAUUCAUUCACCCCAACACUUCUAUCUAAAGGCCAAGGUUCUAGGGCUGCUAUGGUCACUAAC: 0.319
UUUUUUGAAAAGAUGAACCAAAGGAUUUGACUGCUAAUAUUUUAUUCCUUACACUUUUUUUCUGAAUAAGUCUCUCAUAAUGAGUGCAGUGUCAGACUGUGCCUACUCUG: 0.565
